Measurements gathered from unrelated publications.
Numbered parts are unrelated; each lists some results of a single study.
Sequence of UniProt P49459 (whole entry, looked up): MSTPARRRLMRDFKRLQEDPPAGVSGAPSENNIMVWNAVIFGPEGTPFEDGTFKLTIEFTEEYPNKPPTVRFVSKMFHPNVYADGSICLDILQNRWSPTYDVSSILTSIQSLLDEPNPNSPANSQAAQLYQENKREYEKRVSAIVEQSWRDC

Series 1 — method: EMSA with sequencing; molecule type: double-stranded DNA, one strand shown; medium: in vitro; tested at: 10 and 20 nM; reference: negative control set to 0; direction: higher = stronger binding
Target: Hepatocyte nuclear factor 3-alpha (Foxa1, Mus musculus, UniProt P35582, residues 1-468, full length assumed)
Notes: whole designed probe, mean of two concentrations, ends assumed
Shared flanks, not repeated: GTGAGCGGTGCCCATTGATGGGGAAC … TTTCACTGGGATCGTGGGGAC
Construct (chain): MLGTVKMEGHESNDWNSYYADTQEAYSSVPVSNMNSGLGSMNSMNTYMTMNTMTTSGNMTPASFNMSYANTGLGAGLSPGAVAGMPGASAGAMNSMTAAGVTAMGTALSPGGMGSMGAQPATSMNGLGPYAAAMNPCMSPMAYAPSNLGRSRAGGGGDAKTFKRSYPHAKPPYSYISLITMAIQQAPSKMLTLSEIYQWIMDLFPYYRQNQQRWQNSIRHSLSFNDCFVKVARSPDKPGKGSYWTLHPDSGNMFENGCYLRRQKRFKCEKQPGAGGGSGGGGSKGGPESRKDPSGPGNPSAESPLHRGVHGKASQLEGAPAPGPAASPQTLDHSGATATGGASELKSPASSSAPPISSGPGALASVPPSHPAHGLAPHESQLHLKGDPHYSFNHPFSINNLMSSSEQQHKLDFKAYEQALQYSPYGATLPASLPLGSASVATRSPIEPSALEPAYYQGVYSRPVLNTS
| Sequence | normalised bound fraction [ratio] |
| --- | --- |
| CACCTGGTTCAAACCTTGGCTTACCTCCACTCTTAGAATCAGCCGAGCTAATTAAAAGCACAGTGAAAGACACAAAGGCACCAAGACAGCTGAGCAAACATTAACAAATGCGTAAGTAAATAAAGTACTTGTATTATGTGTAAGCAATGGTGCAGATGAAACTTGGGTGGCACTAGGAAGGGTGAGTCAGAGG | 0.522 |
| TGTATAAAGCAATTTATTTTGGAAGAGTAGGCTGCTCTTGAATTGTTTTAAGTAATGGTGATATTTTAGGAAATAAGTGGCAAAGTCACAAAGTAAACAGGTCCACAGTACAACCTTGTCATTTCAATACAGTAACCTTATCTAGATATCGTATTCCACTAGTATTGCCAAATACGATATTTGAGGAATATCA | 0.291 |
| AAATTGGACACTAGGTGAAAATTCAAGCCTAATCGCTAAAGATTAAGAAAGACGCAATAACCACATTATTGGGGAAAAAAAAGCAAATCTCAGAGTAATCTGGAAGAAATGTTCTTTCTTATTTTTCCCAAAGAACCAGCTCTTTAAAATTGAGTTTTTAGATGATAATTTCATGCTTGGTAATACCCACGTG | -0.0785 |
| TGCTGCTTATTCATGAATTTTCAAATGGAAATATCTCTCCCATTATTATCCCCTTCTTGTGAGTCAGGCCCCATCTTGCAAATTTGCAGCTGAGTAATTTTACGGAACATTAGCAGCAATTAGATAATTGGTGCCCCGGATCAGCCCACCCACAGCTGTGAATGAATATGGGCTGCATGAGTGTCACCTGGTG | -0.0689 |
| GTAACTACAGTCTCAACCTGCCACATTTTATCATAGGATCAAATCCAGTAATAAAATAATGAGTCTTGGAGGGCAGGCCAGACAGCTCATCTGTGTTTACTGAAAGCATCCAGCATATCTTATGAGAGAGCTCGTGCCAAACAGATGGGTGGCCGCCCTCCCTCATCTGCCTGCCTGAGGCTTGCCCAACTGC | 0.1 |
| GTGTTATGTGTTCTTTGAATACCTTATTGACAAGAACTATAACTTTTCCAGGCTCAGATGCTTTTTTCTTCTTGTCTAAGTGATCCTTGGCAATGTAAACAGCCACTCTGGTTTTTCCACTCCCTGTAGGGAGGCAGATGATGATATTCTTCCCTTCCAAGGCTGGCTGGGCAACTTCCATTTGGTAAGGCCT | 0.236 |
| TCTTTCCCCTTCTATGACTTGCAAATTTATATTTCTCTTAACAACCATAAAAACAACTACAGTTGCTGAAGAAATAAACACTCAGAAAGCAAATGTTTACTTTTAAATATGAGCAACTTTACATCTAATGCCAATGCCTGATAAAGAGAAATTTATAGTAAACAAAAAATATGGCCAAAATCACTTATTTAGC | 0.391 |
| ATCTTCCCCCTCTTCCTTGCCCCACCAGCTCACCTACGGGGGTTATTTGCACAAAGGAAAATAAATAAAGCCGGCATTCGTTAACCCTCTTCTGGCGCAAACTGCTGTTTGCTCTGGATCTAACATGGTCCTTTGGCGAGGCGTGGCTCCGGGAGAGCAAAGCACCGTGTCAGGGCCATGATCCGGGGTGGCC | 0.375 |

Series 2 — method: universal PBM; molecule type: double-stranded DNA, one strand shown; medium: in vitro; tested at: 600 nM; direction: higher = stronger binding
Target: Sal-like protein 4, full length isoform A (SALL4, Homo sapiens, UniProt Q9UJQ4, residues 1-1053)
Sequence of UniProt Q9UJQ4 (whole entry, looked up): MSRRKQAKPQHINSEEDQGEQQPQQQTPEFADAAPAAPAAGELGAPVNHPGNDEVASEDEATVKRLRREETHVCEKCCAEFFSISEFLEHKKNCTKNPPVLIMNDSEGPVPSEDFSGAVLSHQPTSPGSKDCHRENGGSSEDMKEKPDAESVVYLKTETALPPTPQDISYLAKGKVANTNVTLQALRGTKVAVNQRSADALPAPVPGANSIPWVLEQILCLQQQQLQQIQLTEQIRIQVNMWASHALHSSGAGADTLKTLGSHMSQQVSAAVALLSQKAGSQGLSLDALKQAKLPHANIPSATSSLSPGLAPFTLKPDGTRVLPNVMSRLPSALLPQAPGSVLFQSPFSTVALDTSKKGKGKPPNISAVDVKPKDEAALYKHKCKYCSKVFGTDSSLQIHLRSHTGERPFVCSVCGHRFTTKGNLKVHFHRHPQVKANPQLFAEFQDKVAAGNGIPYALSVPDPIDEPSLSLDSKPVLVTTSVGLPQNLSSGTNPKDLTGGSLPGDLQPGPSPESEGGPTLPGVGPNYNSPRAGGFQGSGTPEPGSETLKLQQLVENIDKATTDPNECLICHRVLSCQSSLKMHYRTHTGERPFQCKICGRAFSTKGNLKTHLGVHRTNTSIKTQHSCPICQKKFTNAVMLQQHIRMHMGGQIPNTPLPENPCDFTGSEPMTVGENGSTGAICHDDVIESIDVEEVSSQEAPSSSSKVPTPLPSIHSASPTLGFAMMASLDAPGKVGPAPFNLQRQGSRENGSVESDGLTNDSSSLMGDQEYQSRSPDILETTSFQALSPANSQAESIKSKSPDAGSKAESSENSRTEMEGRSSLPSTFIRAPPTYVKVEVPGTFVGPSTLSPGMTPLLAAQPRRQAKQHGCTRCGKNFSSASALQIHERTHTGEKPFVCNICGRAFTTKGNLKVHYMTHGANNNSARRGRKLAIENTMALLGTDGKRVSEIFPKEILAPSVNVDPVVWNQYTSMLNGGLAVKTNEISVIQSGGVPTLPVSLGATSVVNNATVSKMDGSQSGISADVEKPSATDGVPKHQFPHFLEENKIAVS
Notes: 8-mer, flanks averaged, mean of replicates
| Sequence | E-score |
| --- | --- |
| ACCAAACA | 0.252 |
| CTGTATTC | 0.144 |
| GATACAAA | 0.241 |
| ACTCCGCG | -0.289 |
| GTCGATGA | -0.0375 |
| TTAACGAA | 0.194 |
| GGCATTAC | -0.0338 |
| CCTTTTCA | 0.116 |

Series 3 — method: RNA Bind-n-Seq; molecule type: RNA; medium: in vitro; tested at: 200 nM; notes: whole 134-nt RNA, ends assumed; added: 150 mM LiCl; reference: input library; direction: higher = stronger binding; library: 7-deaza-guanosine replaces G
Target: Ras GTPase-activating protein-binding protein 1, full length (G3BP1, Homo sapiens, UniProt Q13283)
Sequence of UniProt Q13283 (whole entry, looked up): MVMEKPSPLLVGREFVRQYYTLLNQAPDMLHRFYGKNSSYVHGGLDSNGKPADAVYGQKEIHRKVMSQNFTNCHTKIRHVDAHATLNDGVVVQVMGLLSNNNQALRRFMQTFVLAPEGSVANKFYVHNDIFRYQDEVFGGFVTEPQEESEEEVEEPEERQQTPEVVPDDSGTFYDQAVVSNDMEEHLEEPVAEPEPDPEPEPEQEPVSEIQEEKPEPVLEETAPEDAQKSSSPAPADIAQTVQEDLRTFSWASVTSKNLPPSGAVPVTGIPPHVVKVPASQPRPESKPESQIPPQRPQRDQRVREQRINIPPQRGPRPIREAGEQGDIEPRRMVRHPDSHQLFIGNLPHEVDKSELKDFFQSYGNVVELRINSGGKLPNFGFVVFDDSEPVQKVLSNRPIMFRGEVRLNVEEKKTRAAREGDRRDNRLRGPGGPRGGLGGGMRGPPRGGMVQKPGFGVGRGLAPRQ
Shared flanks, not repeated: GGGAGUUCUACAGUCCGACGAUC … UGGAAUUCUCGGGUGUCAAGG
| Sequence | log2 enrichment |
| --- | --- |
| GUCCUGUGCUACACAUCGUAUGUACCGAAUCGGGGUUUUUGGGGUUUUUGGUUUUUGGAAAGUAUUAUGUUACGCCGUUCGGAUCUGCAC | -0.494 |
| ACCAUGCAGGUGGGCAUCUUUGGGAAGUGGGGCAAGGGGGAGAUAGGGAGGGGGGUAACACUUUGGGAACAGGUGGUCCCAGGUCGUUUC | 0.425 |
| CACAGACAACACGCACCCACACAGACACAGAGGGAGGGGGUUGGGAUGGGGACAGGGUGCACAGCAGGGCGGGGUAGGACCCCAGCCCCU | -0.851 |
| CACAGACAACACCCACCCACACAGACACAGAGGGAAGGGGUUGGGAUGGGGACAGGGUGCACAGCAGGGCGGGGUAGGACCCCAGCCCCU | -1.25 |
| GCUUUGCCUUCACUUAUUUCUUUGCUUUUUAAAAACUAUUUGUAAUGUAAUUUUAAUGCAUUUUUUACAGGCCCAGUAAUGGUUAAAUAC | 0.453 |
| UGCAGAAGCAUCUUCAGUUGGAGAGCCAUUGCCUCUUGCUGUGAAAUAUUUGGGAAUCUUCAGAAACCAUGAAGAAUAACCUGCUAAAGG | 0.24 |
| UCAAGUCCUGUGCUACACAUCGUAUGUACCGAAUCGGCCCGGCCCGGGCCCGGGGAAAGUAUUAUGUUACGCCGUUCGGAUCUGCACUUC | -0.65 |
| UCCUGUGCUACACAUCGUAUGUACCGAAUCGGUUUUUGGGGUUUUUGGGGUUUUUGGGGAAAGUAUUAUGUUACGCCGUUCGGAUCUGCA | -0.047 |

Single results of other studies
B1: RNF186 RING domain (UniProt Q9NXI6); chain HSGSTECDLECLVCREPYSCPRLPKLLACQHAFCAICLKLLLCVQDNTWSITCPLCRKVTAVPGGLI
| Molecule | target | assay | system | setting | scale | measurement | value |
| --- | --- | --- | --- | --- | --- | --- | --- |
| B1 (RNF186 RING domain) | UBE2A UBC core domain (UniProt P49459) | yeast two-hybrid | yeast | mostly zero background | reference: not given, higher = stronger interaction | lacZ reporter activity | 0 |

A few entries again (series 2):
| Sequence | E-score |
| --- | --- |
| CTGTATTC | 0.144 |
| GATACAAA | 0.241 |
| ACTCCGCG | -0.289 |
